Assay results from different studies.
Numbered parts are unrelated; each lists some results of a single study.

Sample 1 — effect on: enzyme activity; action: inhibitor; tested at: 20 µM; notes: hit confirmation
Target: Replicase polyprotein 1ab, main protease (rep, Severe acute respiratory syndrome coronavirus 2, UniProt P0DTD1)
With `Cc1sc(N)c(C(=O)c2cccc(C(F)(F)F)c2)c1C` the inhibition was 23%.
For `COc1cc(N(C)C)cc(CN(C)CCc2ccc([N+](=O)[O-])cc2)c1O`, the inhibition was 104%.
With `O=[N+]([O-])c1ccc2c(c1)S(=O)(=O)C=C2` the inhibition was 6.2%.
`COc1ccc([N+](=O)[O-])c(S(=O)(=O)c2ccc(Cl)cc2)n1` has an inhibition of 94.1%.

Sample 2 — technique: protein binding microarray; molecule type: double-stranded DNA, one strand shown; sample: in vitro; tested at: not given; baseline: not given; reading: higher = stronger binding
Target: Histone acetyltransferase KAT6A, both winged helices, GST fusion (KAT6A, Homo sapiens, UniProt Q92794, residues 1-181)
Notes: 8-mer, flanks averaged, mean of 2 arrays, mostly near background
Target sequence (chain): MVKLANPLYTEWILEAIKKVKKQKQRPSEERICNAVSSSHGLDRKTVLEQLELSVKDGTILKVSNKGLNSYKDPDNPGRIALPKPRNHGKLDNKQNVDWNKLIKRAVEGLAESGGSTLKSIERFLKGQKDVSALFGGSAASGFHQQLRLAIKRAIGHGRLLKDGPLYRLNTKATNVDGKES
`TCACAAGA` gave an E-score of -0.0401.
The E-score of `AATATCGC` is reported as 0.125.
With `GGCCAAAA` the E-score was -0.0228.
`GGGCTAAC` has an E-score of -0.0372.
`ACGCAGCC` has an E-score of 0.0438.
The E-score of `GATCTAGC` is reported as -0.018.
With `ACACAAAG` the E-score was -0.084.
With `AGGGTAAT` the E-score was -0.12.

Sample 3 — cell line: HEK-293T; effect on: pseudovirus infection; technique: FDA-approved drug library screen; organism: VSV pseudotyped with SARS-CoV-2 spike; tested at: 10 µM; time: 16 h; baseline: vehicle-treated
The GFP-positive cells of `C=C1CC[C@H](O)C/C1=C/C=C1\CCC[C@]2(C)[C@@H]([C@H](C)/C=C/[C@H](C)C(C)C)CC[C@@H]12` is reported as 79.6%.
`CC(NC(C)(C)C)C(=O)c1cccc(Cl)c1` (centres unmarked) gave a GFP-positive cells of 77%.
`CC(=O)Oc1ccccc1C(=O)Nc1ncc([N+](=O)[O-])s1` gave a GFP-positive cells of 16.6%.
The GFP-positive cells of `CN1C(=O)CCS(=O)(=O)C1c1ccc(Cl)cc1` (centres unmarked) is reported as 56.1%.
`CCC(=O)NCC[C@@H]1CCc2ccc3c(c21)CCO3` has a GFP-positive cells of 103%.
With `O=C(O)CCc1nc(-c2ccccc2)c(-c2ccccc2)o1` the GFP-positive cells was 93%.

Sample 4 — effect on: enzyme activity; action: inhibitor; tested at: 20 µM
Target: Replicase polyprotein 1ab, polymerase (rep, Severe acute respiratory syndrome coronavirus 2, UniProt P0DTD1)
`CCCCCCCCCCCCCCCCCCN(CCCCCCCCCCCCCCCCCC)CCCN(CCO)CCO` has an inhibition of -8.14%.
`C=CC(C)(O)CCC=C(C)C` (centres unmarked) has an inhibition of -3.17%.
`CCc1cc(/C(C)=N/OCc2ccc(C3CCCCC3)c(C(F)(F)F)c2)ccc1CN1CC(C(=O)O)C1` gave an inhibition of -7.47%.
With `CC(C)c1cc(C(C)C)c(-c2csc(N(CCN(C)C)Cc3cccnc3)n2)c(C(C)C)c1` the inhibition was 4.23%.
`O=C(N[C@H]1CN2CCC1CC2)c1c[nH]c2ccsc2c1=O` has an inhibition of 4.96%.
For `Oc1ccc(-c2nc(-c3ccc(F)cc3)c(-c3ccncc3)[nH]2)cc1`, the inhibition was -24.5%.
The inhibition of `C#C[C@]1(OC(C)=O)CC[C@H]2[C@@H]3CCC4=CC(=NO)CC[C@@H]4[C@H]3CC[C@@]21CC` (mixture of isomers) is reported as -17.8%.
`CN(C)c1ccc(C(=O)NCCCCCCC(=O)NO)cc1` gave an inhibition of 1.28%.
With `CCCCc1nn(-c2ccccc2C(F)(F)F)c(=O)n1Cc1ccc(-c2ccccc2S(=O)(=O)NC(=O)c2sccc2C)cc1` the inhibition was 3.91%.
`Ic1cc(-c2ccccc2)ncn1` gave an inhibition of 0.38%.
The inhibition of `CCC(CO)(C(=O)OC1CC2CCC(C1)[N+]2(C)C)c1ccccc1` (centres unmarked) is reported as 2.06%.
`O=S(=O)(c1cccc2c(O)nccc12)N1CCCNCC1` has an inhibition of 1.45%.
`N[C@@H](Cc1ccc(I)cc1)C(=O)O` has an inhibition of -2.02%.
For `CC(C)NCC(O)COc1ccccc1-n1cccc1` (centres unmarked), the inhibition was -2.56%.
With `O=C1C(O)=C([C@H]2CC[C@H](c3ccc(Cl)cc3)CC2)C(=O)c2ccccc21` the inhibition was -12.8%.
The inhibition of `C[C@]12CCC(=O)C=C1C=C[C@@H]1[C@@H]2CC[C@@]2(C)[C@H]1CC[C@@]21CCC(=O)O1` is reported as -0.6%.
`N#C/C(=C\c1ccc(O)c(O)c1)C(N)=O` gave an inhibition of 1.84%.

Excerpt of the above (sample 4):
`O=C(N[C@H]1CN2CCC1CC2)c1c[nH]c2ccsc2c1=O` has an inhibition of 4.96%.
With `CCCCc1nn(-c2ccccc2C(F)(F)F)c(=O)n1Cc1ccc(-c2ccccc2S(=O)(=O)NC(=O)c2sccc2C)cc1` the inhibition was 3.91%.
`O=S(=O)(c1cccc2c(O)nccc12)N1CCCNCC1` has an inhibition of 1.45%.
